Results gathered from unrelated publications.
A part holds a random share of what one study measured. “And” joins repeats or separate records; there may be more than shown.
UniProt Q8IU85, sequence (whole entry, looked up): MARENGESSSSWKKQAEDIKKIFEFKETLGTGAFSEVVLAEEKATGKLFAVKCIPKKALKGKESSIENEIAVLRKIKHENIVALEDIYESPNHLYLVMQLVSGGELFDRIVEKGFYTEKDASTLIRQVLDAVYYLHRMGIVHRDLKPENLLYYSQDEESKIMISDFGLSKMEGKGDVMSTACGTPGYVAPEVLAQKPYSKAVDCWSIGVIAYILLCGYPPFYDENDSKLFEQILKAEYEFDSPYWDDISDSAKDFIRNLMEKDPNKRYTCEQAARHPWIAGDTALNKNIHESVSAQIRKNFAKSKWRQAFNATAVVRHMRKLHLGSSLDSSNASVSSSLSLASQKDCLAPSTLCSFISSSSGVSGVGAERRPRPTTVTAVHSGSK
UniProt P49137, sequence (whole entry, looked up): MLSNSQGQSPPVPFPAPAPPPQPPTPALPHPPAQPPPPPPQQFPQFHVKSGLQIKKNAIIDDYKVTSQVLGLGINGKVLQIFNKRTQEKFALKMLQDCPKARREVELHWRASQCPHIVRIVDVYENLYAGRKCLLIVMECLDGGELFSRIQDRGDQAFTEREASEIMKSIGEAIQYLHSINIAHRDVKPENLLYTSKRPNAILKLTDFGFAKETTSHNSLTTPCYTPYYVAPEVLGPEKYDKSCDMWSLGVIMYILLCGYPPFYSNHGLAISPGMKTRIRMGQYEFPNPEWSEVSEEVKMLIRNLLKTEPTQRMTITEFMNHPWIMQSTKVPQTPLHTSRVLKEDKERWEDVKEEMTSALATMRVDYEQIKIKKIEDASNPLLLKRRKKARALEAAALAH
UniProt P07949, sequence (whole entry, looked up): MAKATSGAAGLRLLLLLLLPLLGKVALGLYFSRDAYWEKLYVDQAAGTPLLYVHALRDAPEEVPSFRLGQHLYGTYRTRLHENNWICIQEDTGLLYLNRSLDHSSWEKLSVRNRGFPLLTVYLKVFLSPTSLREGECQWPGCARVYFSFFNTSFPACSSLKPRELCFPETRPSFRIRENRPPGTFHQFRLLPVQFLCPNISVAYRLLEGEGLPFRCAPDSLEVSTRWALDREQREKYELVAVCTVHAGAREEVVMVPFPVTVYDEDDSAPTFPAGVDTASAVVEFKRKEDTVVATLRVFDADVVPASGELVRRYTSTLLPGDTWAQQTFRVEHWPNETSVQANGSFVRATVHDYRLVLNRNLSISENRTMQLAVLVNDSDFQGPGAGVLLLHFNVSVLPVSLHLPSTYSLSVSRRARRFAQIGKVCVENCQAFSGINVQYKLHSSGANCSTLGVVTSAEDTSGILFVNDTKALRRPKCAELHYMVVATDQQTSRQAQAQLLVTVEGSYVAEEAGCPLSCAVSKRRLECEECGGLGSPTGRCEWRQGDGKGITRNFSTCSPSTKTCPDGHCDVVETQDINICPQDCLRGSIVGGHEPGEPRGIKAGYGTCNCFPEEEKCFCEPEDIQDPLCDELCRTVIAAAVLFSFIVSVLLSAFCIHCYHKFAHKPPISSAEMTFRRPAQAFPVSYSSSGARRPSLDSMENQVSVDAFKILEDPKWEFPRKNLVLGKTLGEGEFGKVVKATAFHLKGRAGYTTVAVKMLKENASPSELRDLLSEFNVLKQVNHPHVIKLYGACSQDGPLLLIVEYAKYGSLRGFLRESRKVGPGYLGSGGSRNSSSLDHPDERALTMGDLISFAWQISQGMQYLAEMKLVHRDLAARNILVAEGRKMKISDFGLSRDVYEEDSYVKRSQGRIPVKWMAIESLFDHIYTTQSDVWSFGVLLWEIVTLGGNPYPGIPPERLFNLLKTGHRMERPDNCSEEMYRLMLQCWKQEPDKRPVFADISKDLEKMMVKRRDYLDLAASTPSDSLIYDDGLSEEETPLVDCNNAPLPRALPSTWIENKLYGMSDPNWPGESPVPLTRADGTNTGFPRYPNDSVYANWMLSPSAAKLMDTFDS
UniProt P16591, sequence (whole entry, looked up): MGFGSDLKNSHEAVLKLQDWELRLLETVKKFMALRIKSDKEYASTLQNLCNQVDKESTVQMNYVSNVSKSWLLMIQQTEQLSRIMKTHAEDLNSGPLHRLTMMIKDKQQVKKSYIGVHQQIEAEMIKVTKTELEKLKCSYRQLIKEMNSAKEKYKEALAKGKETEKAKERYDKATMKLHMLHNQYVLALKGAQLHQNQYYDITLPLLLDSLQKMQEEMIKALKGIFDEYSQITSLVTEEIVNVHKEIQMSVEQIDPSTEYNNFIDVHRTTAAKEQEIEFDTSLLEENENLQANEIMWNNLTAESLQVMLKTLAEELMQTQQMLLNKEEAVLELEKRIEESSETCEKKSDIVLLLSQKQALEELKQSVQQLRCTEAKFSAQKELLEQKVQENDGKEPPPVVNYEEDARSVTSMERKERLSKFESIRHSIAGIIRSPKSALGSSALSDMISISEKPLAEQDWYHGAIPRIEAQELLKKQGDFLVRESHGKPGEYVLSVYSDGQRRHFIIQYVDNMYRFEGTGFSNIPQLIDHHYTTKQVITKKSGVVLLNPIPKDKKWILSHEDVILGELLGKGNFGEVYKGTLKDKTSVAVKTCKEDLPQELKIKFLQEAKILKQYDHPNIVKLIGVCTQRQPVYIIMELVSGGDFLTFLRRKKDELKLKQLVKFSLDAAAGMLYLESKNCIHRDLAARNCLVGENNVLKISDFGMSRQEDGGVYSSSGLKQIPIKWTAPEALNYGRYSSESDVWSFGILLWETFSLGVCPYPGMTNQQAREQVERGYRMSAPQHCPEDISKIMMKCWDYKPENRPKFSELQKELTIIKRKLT
UniProt Q9BX84, sequence (whole entry, looked up): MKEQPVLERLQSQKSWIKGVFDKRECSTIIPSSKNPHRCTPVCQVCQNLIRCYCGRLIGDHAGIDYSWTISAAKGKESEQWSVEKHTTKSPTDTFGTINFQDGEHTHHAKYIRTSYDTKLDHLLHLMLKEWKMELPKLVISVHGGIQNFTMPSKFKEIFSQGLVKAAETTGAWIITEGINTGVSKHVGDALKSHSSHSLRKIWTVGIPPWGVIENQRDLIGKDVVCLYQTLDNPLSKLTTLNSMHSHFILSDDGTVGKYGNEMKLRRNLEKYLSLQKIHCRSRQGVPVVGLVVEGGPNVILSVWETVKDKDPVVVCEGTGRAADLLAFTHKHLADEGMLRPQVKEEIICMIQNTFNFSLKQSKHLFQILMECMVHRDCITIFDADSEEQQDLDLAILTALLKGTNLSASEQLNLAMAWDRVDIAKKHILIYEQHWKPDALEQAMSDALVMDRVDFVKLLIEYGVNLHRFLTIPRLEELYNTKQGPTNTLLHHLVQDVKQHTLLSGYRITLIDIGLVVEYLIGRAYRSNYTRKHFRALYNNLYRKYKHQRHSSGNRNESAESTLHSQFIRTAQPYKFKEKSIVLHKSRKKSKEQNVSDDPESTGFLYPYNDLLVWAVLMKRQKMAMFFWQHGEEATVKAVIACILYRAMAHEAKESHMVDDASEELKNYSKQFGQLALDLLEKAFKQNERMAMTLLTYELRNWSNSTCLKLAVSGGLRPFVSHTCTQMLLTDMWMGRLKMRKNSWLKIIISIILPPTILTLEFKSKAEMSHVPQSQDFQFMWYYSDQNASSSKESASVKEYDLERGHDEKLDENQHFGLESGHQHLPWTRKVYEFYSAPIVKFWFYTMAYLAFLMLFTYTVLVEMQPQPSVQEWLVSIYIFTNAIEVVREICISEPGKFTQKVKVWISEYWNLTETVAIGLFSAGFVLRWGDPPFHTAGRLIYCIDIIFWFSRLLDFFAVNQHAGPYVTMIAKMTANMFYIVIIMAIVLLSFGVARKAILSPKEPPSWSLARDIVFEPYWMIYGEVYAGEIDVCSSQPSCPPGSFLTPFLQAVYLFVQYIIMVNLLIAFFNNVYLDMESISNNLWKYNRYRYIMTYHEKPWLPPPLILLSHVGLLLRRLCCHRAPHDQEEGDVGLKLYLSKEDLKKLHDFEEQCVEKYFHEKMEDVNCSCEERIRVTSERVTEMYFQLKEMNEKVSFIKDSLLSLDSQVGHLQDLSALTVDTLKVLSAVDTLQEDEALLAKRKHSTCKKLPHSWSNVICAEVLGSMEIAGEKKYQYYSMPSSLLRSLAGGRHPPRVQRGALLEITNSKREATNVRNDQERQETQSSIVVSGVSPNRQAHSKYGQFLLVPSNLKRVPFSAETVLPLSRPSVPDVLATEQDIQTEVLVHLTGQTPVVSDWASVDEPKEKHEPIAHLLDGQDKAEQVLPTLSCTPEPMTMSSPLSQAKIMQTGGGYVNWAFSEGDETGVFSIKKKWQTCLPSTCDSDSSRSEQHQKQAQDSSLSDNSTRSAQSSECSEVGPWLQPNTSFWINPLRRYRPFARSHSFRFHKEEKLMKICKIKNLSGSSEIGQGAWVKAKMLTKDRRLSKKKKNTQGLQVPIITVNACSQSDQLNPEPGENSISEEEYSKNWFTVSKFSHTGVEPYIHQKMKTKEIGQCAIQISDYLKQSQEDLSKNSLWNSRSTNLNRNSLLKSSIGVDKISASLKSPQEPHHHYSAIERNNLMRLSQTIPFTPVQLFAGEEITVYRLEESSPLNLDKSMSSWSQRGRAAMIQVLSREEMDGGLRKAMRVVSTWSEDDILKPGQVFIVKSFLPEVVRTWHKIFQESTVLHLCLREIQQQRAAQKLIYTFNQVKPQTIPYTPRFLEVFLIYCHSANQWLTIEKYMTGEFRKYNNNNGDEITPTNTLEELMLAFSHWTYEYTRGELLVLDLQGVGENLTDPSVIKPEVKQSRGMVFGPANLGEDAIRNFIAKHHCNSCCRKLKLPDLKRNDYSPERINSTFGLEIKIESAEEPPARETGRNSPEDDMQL

Set 1 — read-out: enzyme activity; mode: inhibitor; concentration: 0.5 µM; reference: control
Target: Ephrin type-A receptor 6 (EPHA6, Homo sapiens, UniProt Q9UF33)
Construct (Q9UF33 1-1036): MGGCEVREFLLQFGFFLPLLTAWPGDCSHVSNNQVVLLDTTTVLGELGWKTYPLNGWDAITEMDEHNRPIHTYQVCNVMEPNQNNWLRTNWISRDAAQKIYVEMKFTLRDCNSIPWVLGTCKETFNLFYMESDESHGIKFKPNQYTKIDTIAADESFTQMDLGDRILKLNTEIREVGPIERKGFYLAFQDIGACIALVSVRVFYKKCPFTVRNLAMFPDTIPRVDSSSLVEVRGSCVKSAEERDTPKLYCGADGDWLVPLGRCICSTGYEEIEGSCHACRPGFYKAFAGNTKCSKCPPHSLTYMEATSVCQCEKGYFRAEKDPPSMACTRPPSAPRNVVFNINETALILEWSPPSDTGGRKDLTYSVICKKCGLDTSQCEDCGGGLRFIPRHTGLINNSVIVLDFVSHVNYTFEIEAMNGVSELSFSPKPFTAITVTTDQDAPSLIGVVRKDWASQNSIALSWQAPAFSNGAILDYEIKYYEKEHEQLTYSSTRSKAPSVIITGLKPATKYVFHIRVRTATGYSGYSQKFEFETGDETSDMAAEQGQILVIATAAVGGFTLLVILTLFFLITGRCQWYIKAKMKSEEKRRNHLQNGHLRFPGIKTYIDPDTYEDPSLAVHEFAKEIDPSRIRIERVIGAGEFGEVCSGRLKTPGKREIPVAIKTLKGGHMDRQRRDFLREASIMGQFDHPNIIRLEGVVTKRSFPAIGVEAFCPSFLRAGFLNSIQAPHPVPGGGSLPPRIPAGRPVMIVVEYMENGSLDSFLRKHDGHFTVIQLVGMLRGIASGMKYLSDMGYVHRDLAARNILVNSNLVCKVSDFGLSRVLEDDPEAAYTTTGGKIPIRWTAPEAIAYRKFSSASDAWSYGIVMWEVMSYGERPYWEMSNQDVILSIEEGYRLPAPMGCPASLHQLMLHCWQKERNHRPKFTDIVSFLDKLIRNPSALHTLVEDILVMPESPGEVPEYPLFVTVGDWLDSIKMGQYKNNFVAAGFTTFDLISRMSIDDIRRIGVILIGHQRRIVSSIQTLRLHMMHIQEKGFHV
Compound	remaining activity
Cn1nc2c3c(cccc31)C(=O)c1ccccc1-2	87.6%
CCN(CC)CCNC(=O)c1c(C)[nH]c(/C=C2\C(=O)Nc3ccc(F)cc32)c1C	29.5%
c1ccc(-c2[nH]ncc2-c2ccnc3ccccc23)nc1	98.8%
O=C1C(Cl)=C(N2C(=O)CCC2=O)C(=O)c2ccccc21	89.5%
CN([C@@H](Cc1ccc(OS(=O)(=O)c2cccc3cnccc23)cc1)C(=O)N1CCN(c2ccccc2)CC1)S(=O)(=O)c1cccc2cnccc12	94.9%
COc1cc2ncnc(Nc3cccc(Cl)c3)c2cc1OC	27.8%
COc1cc2c(cc1OC)-c1[nH]nc(Nc3cccc(F)c3)c1C2	82.7%
CCN(CC)CCNC(=O)c1c(C)[nH]c(/C=C2\C(=O)Nc3ccc(Cl)cc32)c1C	45.7%
CCOc1nc(NC(=O)Cc2cc(OC)ccc2OC)cc(N)c1C#N	89.5%
N#C/C(=C\c1ccc(O)c(O)c1)C(=O)NCc1ccccc1	95.7%
N#Cc1c(NC(=O)c2cccc3ccccc23)sc2c1CCCC2	93.4%
Cc1cc2ncc(-c3ccccc3)nc2cc1C	93%
Cc1cn(-c2cc(NC(=O)c3ccc(C)c(Nc4nccc(-c5cccnc5)n4)c3)cc(C(F)(F)F)c2)cn1	47%

Set 2 — read-out: cell-free assay; method: competition with immobilised ligand; concentration: 1 µM
SMILES: COc1ccc2c(c1)O[C@H](c1ccc(OC)c(OC)c1)C[C@@H]2NC(=O)C1(c2ccc3c(c2)OC(F)(F)O3)CC1
target	remaining binding [%]
Transient receptor potential cation channel subfamily M member 6 (TRPM6, Homo sapiens, UniProt Q9BX84)	84
MAP kinase-activated protein kinase 2 (MAPKAPK2, Homo sapiens, UniProt P49137)	100
Serine/threonine-protein kinase Nek4 (NEK4, Homo sapiens, UniProt P51957)	86
Glycogen synthase kinase-3 beta (GSK3B, Homo sapiens, UniProt P49841)	100
Serine/threonine-protein kinase STK11 (STK11, Homo sapiens, UniProt Q15831)	100
Mitogen-activated protein kinase kinase kinase kinase 3 (MAP4K3, Homo sapiens, UniProt Q8IVH8)	100
Ribosomal protein S6 kinase alpha-2, C-terminal kinase domain (RPS6KA2, Homo sapiens, UniProt Q15349)	95
Tyrosine-protein kinase receptor Tie-1 (TIE1, Homo sapiens, UniProt P35590)	100
Receptor-type tyrosine-protein kinase FLT3 (FLT3, Homo sapiens, UniProt P36888, R834Q)	100
Activin receptor type-2A (ACVR2A, Homo sapiens, UniProt P27037)	97
Calcium/calmodulin-dependent protein kinase type 1D (CAMK1D, Homo sapiens, UniProt Q8IU85)	100
Tyrosine-protein kinase Fer (FER, Homo sapiens, UniProt P16591)	100
Tyrosine-protein kinase ABL1, phosphorylated (ABL1, Homo sapiens, UniProt P00519, Q252H)	100
Cyclin-dependent kinase 13 (CDK13, Homo sapiens, UniProt Q14004)	100
Mitotic checkpoint serine/threonine-protein kinase BUB1 (BUB1, Homo sapiens, UniProt O43683)	100
Proto-oncogene tyrosine-protein kinase receptor Ret (RET, Homo sapiens, UniProt P07949)	100
Serine/threonine-protein kinase RIO3 (RIOK3, Homo sapiens, UniProt O14730)	100
Mitogen-activated protein kinase kinase kinase 11 (MAP3K11, Homo sapiens, UniProt Q16584)	100

Set 3 — method: ATPlite
Structure (SMILES): C[C@@H]1CN(c2ccc(-c3cc(C(=O)NCCOCCOCCOCCOCCOCCOCCOCCOCCOCCNC(=O)/C=C/c4[nH]cc(C(=O)N[C@@H](CC(N)=O)c5ccc(F)c(Cl)c5)c4-c4ccc(Cl)cc4F)ccc3F)cc2NC(=O)c2c[nH]c(=O)cc2C(F)(F)F)C[C@H](C)N1C
cell line	concentration	time	reference	viability
MV4-11 expressing HiBiT-WDR5	2 nM to 10 µM	24 h	–	no effect
MV4-11	0.01 µM	5 days	DMSO	84.8% and 56% and 76.5%
MV4-11	4.64 µM	5 days	DMSO	5.69% and 9.65% and 4.43%
MV4-11	0.0215 µM	5 days	DMSO	54.8% and 71.6% and 42.7%
MV4-11	1 µM	5 days	DMSO	12.1%

Mixed results
SMILES	cell line	method	concentration	time	reference	endpoint	value
COCc1cc(C(=O)Nc2cc([C@H]3CC[C@@H](OC(=O)NC(C)C)C3)[nH]n2)n(C)n1	NCI-H1048	Vi-Cell	125 nM	6 d	DMSO	cell count	0.681 and 0.518 and 0.412

A few entries again (set 1):
Compound	remaining activity
CN([C@@H](Cc1ccc(OS(=O)(=O)c2cccc3cnccc23)cc1)C(=O)N1CCN(c2ccccc2)CC1)S(=O)(=O)c1cccc2cnccc12	94.9%
N#Cc1c(NC(=O)c2cccc3ccccc23)sc2c1CCCC2	93.4%
COc1cc2c(cc1OC)-c1[nH]nc(Nc3cccc(F)c3)c1C2	82.7%
